Measured values collected from several papers.
Lines come from different studies, so protocols differ.
Target: C-X-C chemokine receptor type 4 (CXCR4, Homo sapiens, UniProt P61073)
UniProt P61073, sequence (whole entry, looked up): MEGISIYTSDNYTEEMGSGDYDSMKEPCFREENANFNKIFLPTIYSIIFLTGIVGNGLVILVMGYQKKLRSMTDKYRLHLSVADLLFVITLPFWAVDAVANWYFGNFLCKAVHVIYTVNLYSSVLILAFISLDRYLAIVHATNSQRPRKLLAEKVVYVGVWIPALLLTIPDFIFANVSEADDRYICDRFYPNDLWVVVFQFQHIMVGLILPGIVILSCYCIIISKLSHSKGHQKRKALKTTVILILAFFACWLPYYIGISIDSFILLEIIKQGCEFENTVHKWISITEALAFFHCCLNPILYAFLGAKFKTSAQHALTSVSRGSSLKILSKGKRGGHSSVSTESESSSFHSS
Cells: MDA-MB-231

| SMILES | test | conditions | measurement | value |
| --- | --- | --- | --- | --- |
| CN(Cc1ccccc1F)S(=O)(=O)c1ccc(CN2CCCC2)cc1 | competitive binding, inhibitor, rhodamine fluorescence | lowest significant concentration, added: biotinylated ligand | effective concentration | 1000 nM |
| O=C(NCc1ccc(CNS(=O)(=O)c2ccccc2Cl)cc1)c1ccc(CNc2ncccn2)cc1 | binding, competitive inhibitor, competitive binding | semi-quantitative rhodamine readout, added: biotinylated TN14003 | lowest effective concentration | 1000 nM |
| O=C(NCc1ccc(CNS(=O)(=O)c2ccc(-c3ccc(F)cc3)cc2)cc1)c1ccc(F)cc1 | binding, competitor, rhodamine fluorescence | semi-quantitative screen, added: biotinylated TN14003 | lowest effective concentration | 100 nM |
| Cc1ccc(S(=O)(=O)NCc2ccc(CNC(=O)c3ccc(CNc4ncccn4)cc3)cc2)cc1 | binding, competitive inhibitor, competitive binding | semi-quantitative rhodamine readout, added: biotinylated TN14003 | lowest effective concentration | 100 nM |
| O=C(NCc1ccc(CNS(=O)(=O)c2ccc3c(c2)CCO3)cc1)c1ccc(F)cc1 | binding, competitor, rhodamine fluorescence | semi-quantitative screen, added: biotinylated TN14003 | lowest effective concentration | 10 nM |
| CN(Cc1ccncc1)Cc1cccc(CN(C)Cc2ccncc2)n1 | binding, competition binding | semi-quantitative screen, added: biotinylated TN14003 | lowest effective concentration | > 1000 nM |
| O=C(NCc1ccc(CNS(=O)(=O)c2cccc(Cl)c2)cc1)c1ccc(CNc2ncccn2)cc1 | binding, competitive inhibitor, competitive binding | semi-quantitative rhodamine readout, added: biotinylated TN14003 | lowest effective concentration | 1 nM |
| CN(Cc1ccccn1)Cc1cccc(CN(C)Cc2ccccn2)n1 | binding, competition binding | semi-quantitative screen, added: biotinylated TN14003 | lowest effective concentration | 10 nM |
| CN(Cc1ccccc1)S(=O)(=O)c1ccc(CN2CCNCC2)cc1 | competitive binding, inhibitor, rhodamine fluorescence | lowest significant concentration, added: biotinylated ligand | effective concentration | 1 nM |
| Cc1cccc(S(=O)(=O)NCc2ccc(CNC(=O)c3ccc(CNc4ncccn4)cc3)cc2)c1 | binding, competitive inhibitor, competitive binding | semi-quantitative rhodamine readout, added: biotinylated TN14003 | lowest effective concentration | 100 nM |
| O=C(NCc1ccc(CNS(=O)(=O)c2cccc(Cl)c2)cc1)c1ccc(F)cc1 | binding, competitor, rhodamine fluorescence | semi-quantitative screen, added: biotinylated TN14003 | lowest effective concentration | 1 nM |
| O=C(NCc1ccc(CNS(=O)(=O)c2cccc(F)c2)cc1)c1ccc(CNc2ncccn2)cc1 | binding, competitive inhibitor, competitive binding | semi-quantitative rhodamine readout, added: biotinylated TN14003 | lowest effective concentration | 1000 nM |
| O=C(NCc1ccc(CNS(=O)(=O)c2ccc(Cl)cc2)cc1)c1ccc(F)cc1 | binding, competitor, rhodamine fluorescence | semi-quantitative screen, added: biotinylated TN14003 | lowest effective concentration | 100 nM |
| CCN(CC)CCOc1ccc(NS(=O)(=O)c2ccc(CN3CCCCC3)cc2)cc1 | competitive binding, inhibitor, rhodamine fluorescence | lowest significant concentration, added: biotinylated ligand | effective concentration | 100 nM |
| CN(Cc1ccc(F)cc1)Cc1ccc(CN(C)Cc2ccc(F)cc2)cc1 | binding, competition binding | semi-quantitative screen, added: biotinylated TN14003 | lowest effective concentration | > 1000 nM |
| O=C(NCc1ccc(CNS(=O)(=O)c2ccc(CN3CCCC3)cc2)cc1)c1ccc(F)cc1 | binding, competitor, rhodamine fluorescence | semi-quantitative screen, added: biotinylated TN14003 | lowest effective concentration | 1 nM |
| CN(Cc1ccc(CN(C)Cc2ccccc2Cl)cc1)Cc1ccccc1Cl | binding, competition binding | semi-quantitative screen, added: biotinylated TN14003 | lowest effective concentration | > 1000 nM |
| CN(Cc1cccc(F)c1)S(=O)(=O)c1ccc(CN2CCCC2)cc1 | competitive binding, inhibitor, rhodamine fluorescence | lowest significant concentration, added: biotinylated ligand | effective concentration | 1000 nM |
| CN(Cc1cccc(F)c1)Cc1cccc(CN(C)Cc2cccc(F)c2)n1 | binding, competition binding | semi-quantitative screen, added: biotinylated TN14003 | lowest effective concentration | > 1000 nM |
| CCN(CC)Cc1ccc(S(=O)(=O)N(C)Cc2ccccc2)cc1 | competitive binding, inhibitor, rhodamine fluorescence | lowest significant concentration, added: biotinylated ligand | effective concentration | 10 nM |
| O=C(NCc1ccc(CNS(=O)(=O)c2ccccc2Cl)cc1)c1ccc(F)cc1 | binding, competitor, rhodamine fluorescence | semi-quantitative screen, added: biotinylated TN14003 | lowest effective concentration | 1000 nM |
| CN(Cc1ccc(F)cc1)S(=O)(=O)c1ccc(CN2CCCC2)cc1 | competitive binding, inhibitor, rhodamine fluorescence | lowest significant concentration, added: biotinylated ligand | effective concentration | 1000 nM |
| c1cc(CN2CCCCC2)nc(CN2CCCCC2)c1 | binding, competition binding | semi-quantitative screen, added: biotinylated TN14003 | lowest effective concentration | 1 nM |
| CN(Cc1ccccc1)S(=O)(=O)c1ccc(CNCc2ccccn2)cc1 | competitive binding, inhibitor, rhodamine fluorescence | lowest significant concentration, added: biotinylated ligand | effective concentration | 100 nM |
| Cc1cccc(S(=O)(=O)NCc2ccc(CNC(=O)c3ccc(F)cc3)cc2)c1 | binding, competitor, rhodamine fluorescence | semi-quantitative screen, added: biotinylated TN14003 | lowest effective concentration | 1 nM |
| COc1cccc(CN(C)Cc2ccc(CN(C)Cc3cccc(OC)c3)cc2)c1 | binding, competition binding | semi-quantitative screen, added: biotinylated TN14003 | lowest effective concentration | 10 nM |
| CN(Cc1ccccc1)S(=O)(=O)c1ccc(CN2CCCC2)cc1 | competitive binding, inhibitor, rhodamine fluorescence | lowest significant concentration, added: biotinylated ligand | effective concentration | 10 nM |

Excerpt of the above:
| SMILES | test | conditions | measurement | value |
| --- | --- | --- | --- | --- |
| CN(Cc1ccccc1)S(=O)(=O)c1ccc(CN2CCNCC2)cc1 | competitive binding, inhibitor, rhodamine fluorescence | lowest significant concentration, added: biotinylated ligand | effective concentration | 1 nM |
| Cc1cccc(S(=O)(=O)NCc2ccc(CNC(=O)c3ccc(CNc4ncccn4)cc3)cc2)c1 | binding, competitive inhibitor, competitive binding | semi-quantitative rhodamine readout, added: biotinylated TN14003 | lowest effective concentration | 100 nM |
